Results gathered from unrelated publications.
Protocols differ between the studies behind these lines. “And” joins repeats or separate records; there may be more than shown. Numbers after ± are the reported error.

`O=C1CC[C@H](N2Cc3cc(-c4ccn5ncc(Cl)c5n4)ccc3C2=O)C(=O)N1`: “log2 fold change” -3.27 (MOLM-13; mRNA level, RNA-seq, item: PSAT1; 200 nM, 24 h; reference: DMSO).
`CC(C)c1ccc(N(C)c2ccc3c(c2)OCC[C@H]3CNc2cnccc2C(=O)O)cc1` gave an IC50 of 22.4 nM (ECGI10; cell viability, CellTiter-Glo; 7 days).
For `CC(C)(C)c1cc(-c2ccc3cc4ccccc4nc3n2)nc(-c2ccc3cc4ccccc4nc3n2)c1.Cc1ccncc1.[Cl-].[Cl-].[Ru+2].c1ccc2cc3nc4c5cccnc5c5ncccc5c4nc3cc2c1`, the phototoxicity index was 4 (A-375; resazurin; together with: light 733 nm, 100 J/cm2; reference: dark EC50 over light EC50).
With `O=C(NCCSc1ccc2c(/C=C/c3ccccn3)n[nH]c2c1)Nc1ccc(F)c(F)c1` the GI50 was 360 nM (Ba/F3 TEL-VEGFR1; cell growth, CCK-8).
`C[n+]1cccc2cc(/C=N/NC(=O)c3cccc(C(=O)N/N=C/c4ccc5c(ccc[n+]5C)c4)c3)ccc21` gave a ΔTm of 0.5 ± 0.1 °C (hp2 hairpin duplex DNA; FRET melting; 1 µM, together with: ds26 10 µM).
`Cc1ncsc1-c1ccc(C(C)NC(=O)C2CC(O)CN2C(=O)C(NC(=O)CCCCCCCCCCN2CCCC(Nc3ncc(Cl)c(Nc4ccccc4S(=O)(=O)C(C)C)n3)C2)C(C)(C)C)cc1` (centres unmarked): “log2 fold change” -1.21 (22Rv1; RNA-seq, item: ONECUT2 mRNA; concentration not given; reference: DMSO).
`CCN(CC)CC(=O)Nc1cccc(-n2cc(-c3ccc4ccc(-c5cn(-c6cccc(NC(=O)CN(CC)CC)c6)nn5)cc4c3)nn2)c1` gave a fold regulation of 1.51 (RCC4; PCR angiogenesis array, item: CCL2; 5 x IC50, 2 h, normoxia; reference: untreated).
`Cn1ncc2cc(-c3cncc(Cl)c3N3CCC4(CCNC4=O)CC3)ccc21` — result for “log2 fold change”: 1.53 (LS174T; gene expression, microarray, item: SLC2A4 mRNA; concentration not given, 4 h; reference: untreated cells).
For `COc1cccc(CNC[C@](O)(COCc2ccccc2)[C@@H]2CC[C@@H](C)C[C@H]2OCc2ccccc2)c1`, the inhibition was 95.1% (MDA-MB-231; cell growth or viability, MTT; 30 µM, 72 h).
With `CC(C)(C)c1cc(-c2ccc3cccnc3n2)nc(-c2ccc3cccnc3n2)c1.COc1ccncc1.[Cl-].[Cl-].[Ru+2].c1ccc2cc3nc4c5cccnc5c5ncccc5c4nc3cc2c1` the EC50 was 591 ± 6 nM (SK-MEL-28; photocytotoxicity; visible light 400-700 nm, 100 J/cm2, oxygen 18.5%).
`CCc1c(-c2ccc3[nH]ncc3c2)cnc(N)c1-c1ccc(O)cc1` gave a viability of 104% (CHP-212; cell growth or viability, SRB; 0.3906 µM).
With `CNS(=O)(=O)Nc1nccc(Cc2c(C)c3ccc(Oc4ncccc4F)cc3oc2=O)c1F` the IC50 was 113 nM (ABC-1; cell viability; 7 days).
`CC(=O)OC[C@H]1O[C@@H](n2cc(CSc3nc4ccccc4n3Cc3cn([C@@H]4O[C@H](COC(C)=O)[C@@H](OC(C)=O)C(OC(C)=O)[C@H]4OC(C)=O)nn3)nn2)[C@H](OC(C)=O)C(OC(C)=O)[C@@H]1OC(C)=O` (stereo in doubt) has a cytotoxicity of 83.2% (Caco-2; MTT; 31.3 ppm).
`Cc1cc(C)nc(SCC(=O)Nc2ncc(Cc3cccc(OCc4cn(-c5ccc(Cl)cc5)nn4)c3)s2)n1` gave an inhibition of 29.8 ± 6.3% (PC-3M-luc; colony formation, colony forming; 10 µM).
For `Cc1nc2c(F)cc(-c3nc(Nc4ccc(CNC(=O)CCCC(=O)NO)cc4)ncc3F)cc2n1C(C)C`, the inhibition was 58.4% (4T1; cell growth or viability, CCK-8; 0.3 µM, 48 h).
`COc1ccc(NC(=O)c2ccc3[nH]c(-c4ccc(N(C)C)cc4)nc3c2)cn1`: “dead cell to confluence ratio” 115 and 229 and 447 (HCT116; IncuCyte; concentration not given, 22 h).
The phototoxicity index of `[Cl-].[Cl-].[Ru+2].c1cc(-c2ccc3cccnc3n2)nc(-c2ccc3cccnc3n2)c1.c1ccc2cc3nc4c5cccnc5c5ncccc5c4nc3cc2c1` is reported as 3 (A-375; resazurin; together with: light 633 nm, 100 J/cm2; reference: dark EC50 over light EC50).
For `CC(C)C[C@@H]1NC(=O)[C@H](CC(C)C)NC(=O)[C@H](Cc2c[nH]c3ccccc23)NC(=O)[C@H](CO)NC(=O)[C@H](Cc2c[nH]c3ccccc23)NC(=O)[C@@H]2CCCN2C(=O)[C@H](CC(C)C)NC(=O)[C@H](Cc2c[nH]cn2)NC(=O)[C@@H]2CCCN2C(=O)[C@H](CC(N)=O)NC(=O)[C@H](C)NC(=O)[C@H](Cc2ccc(O)cc2)NC(=O)[C@H](CS)NC(=O)[C@H](CCCCNC(=O)CN2CCN(CC(=O)O)CCN(CC(=O)O)CCN(CC(=O)O)CC2)NC1=O` [lutetium-177 labelled], the dead cells was 32% (4T1; flow cytometry; 0.4 Bq/cell, 48 h).
For `O=C(N1CCCC1)n1cc(-c2ccc(-c3ccccc3)cc2)nn1`, the SILAC ratio was 1.07 (mouse T-cells; N-terminal labelling enrichment, item: S100A6 N-terminal peptides; 1 nM, 6 h, protein median; reference: DMSO).
With `C[n+]1ccc(/C=N/NC(=O)c2ccc3ccc(C(=O)N/N=C/c4cc[n+](C)cc4)nc3n2)cc1` the ΔTm was 3.2 ± 0.4 °C (MYC parallel G4 DNA; FRET melting; 1 µM, DNA 0.2 µM).
For `COc1cc(/C=C/C(=O)CC(C)=O)ccc1O`, “cells in G1 phase” read 18.2% (A549; PI staining flow cytometry; 50 µM, 48 h).
For `C=C1CC2(C(=O)OC)C=C(C(=O)OC(C)(C)C)C(=O)C1C2` (centres unmarked), the luminescence was 3450 a.u. (AP-1 reporter HEK293; AP-1 reporter gene, luciferase reporter; 10 µM, 6 h, together with: PMA 6 ng/mL; higher = more transcription).
For `Oc1ccnc(-c2cc(O)ccn2)c1.[Cl-].[Cl-].[Ru+2].c1ccc(-c2ccnc3c2ccc2c(-c4ccccc4)ccnc23)cc1.c1ccc(-c2ccnc3c2ccc2c(-c4ccccc4)ccnc23)cc1`, the EC50 was 38000 nM (MCF-10A; CCK-8 viability; dark).
`CCN(C(=O)c1cc(F)ccc1Oc1nncnc1N1CCC2(C1)CN([C@H](CCCN(C)CCOC)C(C)C)C2)C(C)C` has a GI50 of over 10000 nM (NCI-H292; cell growth or viability; 7 days).
For `CN(C)c1ccc(-n2cc(COC(=O)[C@@]3(C)C=C(C(=O)OC(C)(C)C)C(=O)CC3)nn2)cc1`, “luminescence relative to PMA” read 0.701 (AP-1 reporter HEK293; AP-1 reporter gene, luciferase reporter; 3 µM, 6 h, together with: PMA 6 ng/mL; reference: PMA alone).
Under “log2 fold change”, `CN1CCCNC(=O)c2cccc(c2)C(=O)NCCCN(C)CCCNc2cccc3c2C(=O)c2cccc(c2C3=O)NCCC1` is recorded as -1.31 (SAS; RNA-Seq, item: ZNF12 mRNA; 1 µM, 6 h; reference: untreated cells).
`COc1cc(N2CCN(C(=O)CCOCCNC(=O)[C@@H]3CCCN3)CC2)ccc1Nc1ncc(Cl)c(Nc2ccccc2P(C)(C)=O)n1` — result for “early apoptotic cells”: 1.7% (NCI-H3122; annexin V/PI flow cytometry; 500 nM, 24 h).
`COc1ccccc1-c1ccncc1C(=O)Nc1nnc(OCc2ccc(Cl)cc2)s1` gave a colony survival of 62% (MDA-MB-436 (BRCA1 mutant); colony formation; 0.375 µM; reference: untreated control).
For `CN(C)Cc1nc(Nc2ccc(-c3cnc4cc(F)ccn34)c3c2C(=O)NC3)ccc1C1CCOC1` (centres unmarked), the CD40-positive cells was 41% (mouse BMDC; flow cytometry; 10 µM).

Excerpt of the above:
With `C[n+]1ccc(/C=N/NC(=O)c2ccc3ccc(C(=O)N/N=C/c4cc[n+](C)cc4)nc3n2)cc1` the ΔTm was 3.2 ± 0.4 °C (MYC parallel G4 DNA; FRET melting; 1 µM, DNA 0.2 µM).
For `COc1cc(/C=C/C(=O)CC(C)=O)ccc1O`, “cells in G1 phase” read 18.2% (A549; PI staining flow cytometry; 50 µM, 48 h).
For `C=C1CC2(C(=O)OC)C=C(C(=O)OC(C)(C)C)C(=O)C1C2` (centres unmarked), the luminescence was 3450 a.u. (AP-1 reporter HEK293; AP-1 reporter gene, luciferase reporter; 10 µM, 6 h, together with: PMA 6 ng/mL; higher = more transcription).
